Results of several laboratories.
Several values in a cell are separate wells, animals, samples, runs or records. Numbers after ± are the reported error.

For CC(Nc1nc(N2CCCC2)nc2ccccc12)c1ccccc1 (centres unmarked), “cells with nuclear reporter” read 92.9% (transportin-1/2; FUS nuclear import, high content imaging; HeLa Kyoto reporter; 0.05 µM, 2 h).
For CSCCNc1nc(SCCC(F)(F)F)nc2c1ncn2[C@@H]1O[C@H](COP(=O)(O)OP(=O)(O)C(Cl)(Cl)P(=O)(O)O)[C@@H](O)[C@H]1O, “patients with high reactivity” read 55% (ADP-induced platelet aggregation, LTA, >59% aggregation; human patients, platelet-rich plasma; dose not given, 1 h, with: ADP 20 µM).
COc1ccc(-c2cncc(N[C@@H](C)c3cccc(NC(=O)c4cncc(C)c4)c3)n2)cc1OC — result for “delta delta Ct”: 0.0808 (measured: rno-miR-194-5p; rat SU5416/hypoxia model, lung; dose not given, unit not given; reference: SU5416/hypoxia vehicle).
Under “log2 fold change”, Cn1cc(-c2ccc(-c3cncc(Cl)c3N3CCC4(CCNC4=O)CC3)cc2)cn1 is recorded as 2.42 (COLO 205; gene expression, microarray, measured: CD59 mRNA; concentration not given, 6 h; reference: untreated cells).
The ED50 of CCCCCCCCCCCCCCCC(=O)NCCO is reported as 34.3 mg/kg (mechanical withdrawal threshold; mouse, carrageenan inflammatory pain; oral).
For COc1cc(F)c([C@@H]2CNC(=O)[C@H]2NC(=O)Nc2ccccc2)c(F)c1, the cardiac output was 37 ± 9 mL/min (rat, myocardial infarction; 1 mg/kg, 1008 h, 6 weeks after occlusion).
C[C@@H]1CCC[C@H](n2cnc(-c3cc(Cl)ccc3-n3cc(Cl)nn3)cc2=O)c2cc(ccn2)-c2c(cnn2C(F)F)NC1=O: “concentration for aPTT prolongation” greater than 40 µM (rat plasma; IC1.5× aPTT, Actin FS reagent).
With CN(C(=O)n1cnc(-c2ccc[n+]([O-])c2)c1)C1CCCCC1 the AUC(0-tau) was 129 ng·h/mL (measured: PEA; human, plasma; 20 mg once daily, day 10).
For C[C@H]1C[C@H]2CSC(N)=N[C@@]2(c2nc(NC(=O)c3ccc(OC(F)F)cn3)cs2)CO1, “percent change from baseline” read -45.8% (measured: total Aβ; healthy adults, plasma; 15 mg once daily, day 4; reference: placebo).
CC(C)NCC(O)c1ccc(O)c(O)c1 (centres unmarked) has a sarcomere length of 1.71 µm (ventricular cardiomyocytes, C57BL/6 mouse; dose not given, 0.284 s).
With CCCCC1C(=O)N(c2ccccc2)N(c2ccc(O)cc2)C1=O (centres unmarked) the activity score was 8.5 (human iPSC-derived cardiomyocytes; MyBP-C/MYH ratio, plate-normalised SD score; concentration not given, primary screen; direction not given).
For OC(CCN1CCCCC1)(c1ccccc1)C1CC2C=CC1C2 (centres unmarked), “change, Delta EEG power, in O2-Pz” read 35.9% (resting-state EEG; healthy elderly humans; oral, 4 mg, eyes closed, LS mean; reference: baseline).
For N#Cc1ccc2c(c1)[C@H]1CCCN(C(=O)c3ccc4[nH]cnc4c3)[C@H]1C2, “body weight change from baseline” read -0.11 kg (human clinical trial; oral, 240 mg once daily, 28 d).
For O=C(O)CNC(=O)Cc1ccccc1, the sarcomere length was 1.72 µm (ventricular cardiomyocytes, C57BL/6 mouse; dose not given, 0.108 s).
Cc1ccc(NC(=O)c2ccnc(C(F)(F)F)c2)cc1-c1cc(OCCO)nc(N2CCOCC2)c1 gave a progressive disease of 41.4% (MAPK-altered advanced solid tumour patients; dose not given, single-agent dose escalation).
With CC(C)C[C@H](NC(=O)C[C@H](O)[C@H](CC(C)C)NC(=O)[C@H](Cc1c[nH]cn1)NC(=O)CNC(=O)[C@@H](NC(=O)[C@H](C)NC(=O)[C@H](Cc1c[nH]c2ccccc12)NC(=O)[C@H](CCC(N)=O)NC(=O)[C@@H](Cc1ccccc1)NC(=O)COCCOCCNC(=O)CCC(C(=O)O)N1CCN(CC(=O)O)CCN(CC(=O)O)CCN(CC(=O)O)CC1)C(C)C)C(N)=O (some centres unmarked) [lutetium-177 labelled] the tissue uptake was 61 ± 29 %ID/g (BALB/c nu/nu mice, bladder; intravenous, 50 pmol, 1 h, with: PA 300 µg).
C[C@H]1O[C@@H](O[C@H]2CC[C@@]3(C)[C@@H](CC[C@]4(C)[C@@H]3C=C[C@]35OC[C@@]6(CCC(C)(C)C[C@H]63)[C@@H](O)C[C@]54C)[C@]2(C)CO)[C@H](O)[C@@H](O[C@@H]2O[C@H](CO)[C@@H](O)[C@H](O)[C@H]2O)[C@H]1O has a protein level of 0.307 and 0.374 and 0.656 (Western blot, measured: caspase3; chronic-plus-binge ethanol-fed mice, liver; dose not given, high dose, unit not given; reference: β-actin).
COc1ccc(CC2c3cc(OC)c(OC)cc3CC[N+]2(C)CCC(=O)OCCCCCOC(=O)CC[N+]2(C)CCc3cc(OC)c(OC)cc3C2Cc2ccc(OC)c(OC)c2)cc1OC (centres unmarked) has an activity score of 3.8 (human iPSC-derived cardiomyocytes; MyBP-C/MYH ratio, plate-normalised SD score; concentration not given, primary screen; direction not given).
The T/C ratio of Cn1nnc2c(C(N)=O)ncn2c1=O is reported as 93% (mouse subcutaneous GBM PDX sample A; subcutaneous, dose not given).
Cc1n[nH]c2ccc(-c3cc(OC[C@@H](N)Cc4ccccc4)cnc3-c3ccoc3)cc12: “log2 fold change” -0.569 (kinase binding, competitor, MIB/MS competition, measured: SHA3; Candida albicans cell lysate; 1 µM; reference: DMSO).
With C[C@@H](O)CCOC(=O)C[C@@H](C)O the plasma glucagon was 19 pM (human; oral drink, dose not given, 60 min post dose, median, all participants).
Cc1ccc([C@@H]2O[C@H](CO)[C@@H](O)[C@H](O)[C@H]2O)cc1Cc1ccc(-c2ccc(F)cc2)s1 — result for “change, mean 24 h, plasma glucose”: -43 mg/dL (Japanese type 2 diabetes patients; 400 mg, day 1; reference: day 0).
For Cc1oncc1C(=O)Nc1ccc(C(F)(F)F)cc1, the DHO concentration was 13700 ± 140 µM (measured: dihydroorotate; female CD-1 mice, pooled urine; oral, 30 mg/kg daily, 8-24 h after dose 3).

Repeated from above:
Cc1ccc(NC(=O)c2ccnc(C(F)(F)F)c2)cc1-c1cc(OCCO)nc(N2CCOCC2)c1 gave a progressive disease of 41.4% (MAPK-altered advanced solid tumour patients; dose not given, single-agent dose escalation).
With CC(C)C[C@H](NC(=O)C[C@H](O)[C@H](CC(C)C)NC(=O)[C@H](Cc1c[nH]cn1)NC(=O)CNC(=O)[C@@H](NC(=O)[C@H](C)NC(=O)[C@H](Cc1c[nH]c2ccccc12)NC(=O)[C@H](CCC(N)=O)NC(=O)[C@@H](Cc1ccccc1)NC(=O)COCCOCCNC(=O)CCC(C(=O)O)N1CCN(CC(=O)O)CCN(CC(=O)O)CCN(CC(=O)O)CC1)C(C)C)C(N)=O (some centres unmarked) [lutetium-177 labelled] the tissue uptake was 61 ± 29 %ID/g (BALB/c nu/nu mice, bladder; intravenous, 50 pmol, 1 h, with: PA 300 µg).
C[C@H]1O[C@@H](O[C@H]2CC[C@@]3(C)[C@@H](CC[C@]4(C)[C@@H]3C=C[C@]35OC[C@@]6(CCC(C)(C)C[C@H]63)[C@@H](O)C[C@]54C)[C@]2(C)CO)[C@H](O)[C@@H](O[C@@H]2O[C@H](CO)[C@@H](O)[C@H](O)[C@H]2O)[C@H]1O has a protein level of 0.307 and 0.374 and 0.656 (Western blot, measured: caspase3; chronic-plus-binge ethanol-fed mice, liver; dose not given, high dose, unit not given; reference: β-actin).
